Published values from different studies.
Each numbered part is a random draw from the data of one study; scales do not carry over between parts.

Study 1
Target: RNA binding protein fox-1 homolog 2, RRM domain, GST-SBP tag (RBFOX2, Homo sapiens, UniProt O43251-10, residues 100-194)
Method: RNA Bind-n-Seq
Molecule type: RNA
Sample: in vitro
Tested at: 365 nM
Notes: natural RNA segment, single round, ends assumed
Baseline: no-protein control
Reading: higher = stronger binding
Target sequence (chain): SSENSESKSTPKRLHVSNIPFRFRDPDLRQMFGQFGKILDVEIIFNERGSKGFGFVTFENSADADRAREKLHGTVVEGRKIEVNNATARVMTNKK
| Sequence | RBNS enrichment (R) |
| --- | --- |
| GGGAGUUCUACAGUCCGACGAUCAACAGUAAAGGCCAUGUGAAGAGAAUUAUUACAUCUUUAUUAACCUCAGCAUUUACUUUGUUUCUUUUGCUUAGGAAAUUGCUCAUAAUCUGGUUAUAAUUUUGGUCCAAUGGAAUUCUCGGGUGCCAA | 0.357 |
| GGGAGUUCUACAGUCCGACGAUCUUAUAAGCUGAAUUUUAUAUGUUACUGUAUAUAGUAUUUAUUUGAUUUUACUUACGCUACCUCUCCAAUGCUGGCUUCAUUUUAAUUGUGUUUUAUAUGCUCAUUUAAAAUGGAAUUCUCGGGUGCCAA | 0.403 |
| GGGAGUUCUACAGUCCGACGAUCCCUCUGUGUGUGAGGCCCUUCAUCUAAGUGAUUGUGUAUUCAGUUUAAUUCUCAUUAUAUUUCUAUACUGAAAGAAGAUUUUUAACGAAGGGAAAAACAACAGCAAUAACUGGAAUUCUCGGGUGCCAA | 0.555 |
| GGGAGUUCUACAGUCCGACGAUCCCCCAAGCAGUGGUGCCACUCUUCCAAGCCUCUUGGUGCACAGUAAACCUAUUGCUUGAAGCUUUGAACAGCUGAGAAGUGGUCUGGAGAGGCAGAAGCUGAAGGUUCUAUGGAAUUCUCGGGUGCCAA | 0.299 |
| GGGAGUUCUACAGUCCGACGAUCCCAUUUUCACACAACUUCUCUCUGUAUAGGCCUCUGAAAUAUCAAUAAGGCUAAAUAUUACUUUACACAGUAAGAUGUGAAAUUCACAAAAAGUAAACCAAACAAAACGAUGGAAUUCUCGGGUGCCAA | 0.496 |
| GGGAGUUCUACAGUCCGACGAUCGCACCAGCACCUUAGAAACUAUUGGCAGAAGAGGGCACAUGAGCUGCGGGAGAGUGUAUACACUGAUCAGUACCUCCCUUGAGGCUGAGCUUCCUCGCAGACCCACAGAAUGGAAUUCUCGGGUGCCAA | 1.19 |
| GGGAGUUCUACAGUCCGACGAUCGGAAACGCGCAGAUGUCCAAAAGUCUAAAUAAAUGCAUUCAGAGGUUUUUGGGGUCCAUGGCCAAGUGGAGUUCCCCCAGAGGGGGAGGUGGGGUAAGUGCCUCCAGGAAUGGAAUUCUCGGGUGCCAA | 6.46 |
| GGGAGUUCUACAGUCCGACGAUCAGAGAAGGUCUCCUCUGUGCUCCAUCCACACAGGAUGCCGGAGAGACAGCCCCUUGUGCUGUGAGCAGAGCAGGCAGUGGCUCUGGAGGCUGCCUGUGGUCUCCUUCCGGUGGAAUUCUCGGGUGCCAA | 0.463 |

Study 2
Target: Sal-like protein 4, full length isoform B (SALL4, Homo sapiens, UniProt Q9UJQ4-2, residues 1-616)
Method: universal PBM
Molecule type: double-stranded DNA, one strand shown
Sample: in vitro
Tested at: not given
Notes: 8-mer, flanks averaged, mean of replicates
Reading: higher = stronger binding
| Sequence | E-score |
| --- | --- |
| CACACACA | 0.00147 |
| GTGTAACA | 0.068 |
| CCGCGTCG | -0.273 |
| CCGGATAA | 0.0283 |
| CAGGTTGC | -0.0402 |
| GTGTCACA | 0.0358 |
| CCACTTGC | -0.107 |
| CTACACAC | 0.129 |
| ATGAACGA | 0.18 |
| TCCTTCCA | -0.00248 |
| GGAGTCAA | -0.0883 |
| ACGTGCAC | -0.0299 |
| ACCGCCAG | -0.27 |
| AATCGCAT | 0.0896 |
| CCAGCGTC | -0.321 |
| GGCATAAA | 0.182 |
| ATGTCCTG | -0.072 |
| CGGCTCAG | -0.311 |
| TAGGTTCA | 0.065 |
| GCAGGACC | -0.302 |
| GCAGCTGA | -0.0858 |
| CTCCTGTC | 0.0225 |
| AATGCCAG | -0.034 |
| GGTATACA | 0.108 |
| CTAGCACA | 0.0185 |

Study 3
Target: Ras GTPase-activating protein-binding protein 1, RRM domain (G3BP1, Homo sapiens, UniProt Q13283)
Sequence of UniProt Q13283 (whole entry, looked up): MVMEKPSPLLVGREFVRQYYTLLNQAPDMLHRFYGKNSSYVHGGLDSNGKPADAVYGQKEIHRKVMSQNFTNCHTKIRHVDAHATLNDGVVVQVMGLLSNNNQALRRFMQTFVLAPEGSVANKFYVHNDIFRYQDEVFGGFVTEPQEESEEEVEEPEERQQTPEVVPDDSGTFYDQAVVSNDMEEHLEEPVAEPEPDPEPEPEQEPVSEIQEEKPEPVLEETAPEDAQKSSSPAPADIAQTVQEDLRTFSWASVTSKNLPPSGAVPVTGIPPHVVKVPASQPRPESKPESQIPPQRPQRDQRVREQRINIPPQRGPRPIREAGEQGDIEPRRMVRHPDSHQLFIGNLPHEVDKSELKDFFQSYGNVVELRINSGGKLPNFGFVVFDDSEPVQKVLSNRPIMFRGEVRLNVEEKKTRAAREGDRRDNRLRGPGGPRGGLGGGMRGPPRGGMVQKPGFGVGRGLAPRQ
Method: RNA Bind-n-Seq
Molecule type: RNA
Sample: in vitro
Tested at: 1 µM
Notes: whole 134-nt RNA, ends assumed
With: 150 mM KCl
Baseline: input library
Reading: higher = stronger binding
| Sequence | log2 enrichment |
| --- | --- |
| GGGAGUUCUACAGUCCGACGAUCGCAGGAAGUAAAAACAAAUGGAAAUGCUUCGGAUAGUGGCAGGGGUGGGGGUUGCUAAGGAAAGGGUGGGAAGGGAGUGGGUAAAGAGUUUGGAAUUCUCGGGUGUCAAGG | 1.26 |
| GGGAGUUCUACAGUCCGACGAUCCCUCAAGUCCUGUGCUACACAUCGUAUGUACCGAAUCGGUGGGGUGGUGGGGAAAGUAUUAUGUUACGCCGUUCGGAUCUGCACUUCCAGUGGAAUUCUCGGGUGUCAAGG | -0.208 |
| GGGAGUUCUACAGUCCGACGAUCUCCUGUGCUACACAUCGUAUGUACCGAAUCAAAUUUAAACCCCCCCAAAUUUUUUUAAAAAAGUAUUAUGUUACGCCGUUCGGAUCUGCAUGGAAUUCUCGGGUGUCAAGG | -0.157 |
| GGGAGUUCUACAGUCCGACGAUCCUCAAGUCCUGUGCUACACAUCGUAUGUACCGAAUCGGUUUUUGGUGGAAAGGAAAGUAUUAUGUUACGCCGUUCGGAUCUGCACUUCCAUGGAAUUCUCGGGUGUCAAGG | -0.222 |
| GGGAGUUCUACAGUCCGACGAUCCCUCAAGUCCUGUGCUACACAUCGUAUGUACCGAAUCGGUUUUUGGUGGUGGAAAGUAUUAUGUUACGCCGUUCGGAUCUGCACUUCCAGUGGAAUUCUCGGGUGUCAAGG | -0.201 |
| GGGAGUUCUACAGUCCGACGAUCUGCUUCUCUAUGGAAAGGACUUUCCCCCAAGCUGGACGAGGCAUUAAGAAGGAUAGAGGACUCCAGCAGGCUGACUCUACACUUCAUCAUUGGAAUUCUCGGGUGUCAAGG | -0.226 |
| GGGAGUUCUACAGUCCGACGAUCCUCAAGUCCUGUGCUACACAUCGUAUGUACCGAAUCGGCCCGGCCCGGCCCGGAAAGUAUUAUGUUACGCCGUUCGGAUCUGCACUUCCAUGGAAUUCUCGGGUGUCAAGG | -1.18 |
| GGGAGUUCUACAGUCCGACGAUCUCAAGUCCUGUGCUACACAUCGUAUGUACCGAAUCGGAGGAAAAAAAGGUUUGGAAAGUAUUAUGUUACGCCGUUCGGAUCUGCACUUCCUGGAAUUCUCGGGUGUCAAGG | -0.223 |
| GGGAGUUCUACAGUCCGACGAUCACCAUGCAGGUAAACAUCUUUGGGAAGUGGGGCAAGGGGGGGAUAGGGAGGGGGGUAACACUUUGGGAACAGGUGGUCCCAGGUCGUUUCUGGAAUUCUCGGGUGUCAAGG | -0.332 |

Study 4
Target: Histone acetyltransferase KAT6A, winged helix 1, GST fusion (KAT6A, Homo sapiens, UniProt Q92794, residues 1-85)
Method: protein binding microarray
Molecule type: double-stranded DNA, one strand shown
Sample: in vitro
Tested at: not given
Notes: 8-mer, flanks averaged, mean of 2 arrays, mostly near background
Baseline: not given
Reading: higher = stronger binding
Construct (chain): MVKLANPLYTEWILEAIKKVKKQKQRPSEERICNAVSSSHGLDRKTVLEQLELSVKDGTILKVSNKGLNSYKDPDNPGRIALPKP
| Sequence | E-score |
| --- | --- |
| AGGTTGCA | -0.239 |
| CTGGCCAA | -0.195 |
| CTTTAGAA | -0.056 |
| AGAAACTA | -0.102 |
| TCATGAGA | -0.0862 |
| ATGAACGC | 0.0884 |
| CGTTCCGA | 0.0279 |
| AACCTGCG | 0.14 |
| ATCTTAAG | -0.104 |
| ACGTTTAG | -0.156 |
| CACGTCTG | -0.0563 |
| AGGTCGAT | -0.0232 |
| CGAAGATA | -0.191 |
| TTAATAAA | -0.0268 |
| AAACATGG | -0.0685 |
| CAGAAGAC | -0.298 |
| GCGCACAC | 0.272 |
| GGTCGGAC | 0.151 |
| TTATAAAA | 0.0397 |
| CGGGACGA | 0.104 |
| AAAGAAGT | -0.114 |
| GTAGAGAC | -0.162 |
| ACGCTAGG | -0.0519 |
| AAACGTTA | -0.00818 |
| GCTCCCTA | 0.0582 |

For quick reference, copied from above (study 2):
| Sequence | E-score |
| --- | --- |
| CCAGCGTC | -0.321 |
| GGCATAAA | 0.182 |
| ATGTCCTG | -0.072 |
| CGGCTCAG | -0.311 |
| TAGGTTCA | 0.065 |
